Measurements collected from several papers.
A part holds a random share of what one study measured. Substitutions count along the parent as printed.

Series 1
Target: CCNA1, cyclin fold, Cln2 fusion (human)
Technique: yeast growth competition, sequencing
Medium: yeast
Setting: weak parent motif
Baseline: not given
Direction: higher = stronger binding
Starting sequence: ASZ1 docking peptide (human); GFGFLLFICKLTF
Variant | normalised enrichment score
L11A | -0.531
L6A | -0.145
L5A | -0.402

Series 2
Target: Sal-like protein 4, full length isoform A (SALL4, Homo sapiens, UniProt Q9UJQ4, residues 1-1053)
Chain of UniProt Q9UJQ4 (whole entry, looked up): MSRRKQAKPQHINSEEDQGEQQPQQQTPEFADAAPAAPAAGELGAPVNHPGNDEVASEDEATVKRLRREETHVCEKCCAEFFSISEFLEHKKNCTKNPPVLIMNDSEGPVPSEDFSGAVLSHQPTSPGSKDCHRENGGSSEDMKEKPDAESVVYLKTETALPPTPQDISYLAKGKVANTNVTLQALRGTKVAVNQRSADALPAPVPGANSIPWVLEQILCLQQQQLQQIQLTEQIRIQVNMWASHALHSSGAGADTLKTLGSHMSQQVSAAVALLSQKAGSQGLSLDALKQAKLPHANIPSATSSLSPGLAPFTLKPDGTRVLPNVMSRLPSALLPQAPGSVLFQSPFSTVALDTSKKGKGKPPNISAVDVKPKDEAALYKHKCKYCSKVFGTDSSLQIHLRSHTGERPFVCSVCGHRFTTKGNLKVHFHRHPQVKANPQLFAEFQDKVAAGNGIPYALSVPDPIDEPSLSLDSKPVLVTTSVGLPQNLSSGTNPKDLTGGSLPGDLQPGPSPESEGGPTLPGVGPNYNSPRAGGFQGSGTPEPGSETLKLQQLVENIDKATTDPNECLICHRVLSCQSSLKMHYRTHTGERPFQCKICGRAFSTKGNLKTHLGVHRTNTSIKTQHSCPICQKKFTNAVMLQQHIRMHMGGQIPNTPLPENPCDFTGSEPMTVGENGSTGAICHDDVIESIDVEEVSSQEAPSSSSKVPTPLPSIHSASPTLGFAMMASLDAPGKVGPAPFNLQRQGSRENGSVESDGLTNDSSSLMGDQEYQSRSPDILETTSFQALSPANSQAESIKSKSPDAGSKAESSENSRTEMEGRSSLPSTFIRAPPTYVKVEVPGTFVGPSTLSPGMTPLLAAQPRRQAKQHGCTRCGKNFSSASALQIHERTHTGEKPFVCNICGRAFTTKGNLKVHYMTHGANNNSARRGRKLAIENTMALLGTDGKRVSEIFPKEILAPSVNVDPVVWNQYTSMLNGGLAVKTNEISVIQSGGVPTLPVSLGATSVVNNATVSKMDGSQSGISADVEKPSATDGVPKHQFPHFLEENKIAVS
Technique: universal PBM
Molecule type: double-stranded DNA, one strand shown
Medium: in vitro
Concentration: 600 nM
Setting: 8-mer, flanks averaged, mean of replicates
Direction: higher = stronger binding
Oligonucleotide | E-score
TCATCGCA | 0.134
AAGTATTC | 0.264
TCTCCACA | 0.0614
AGTCTGTA | 0.0824
GAGCGGGA | -0.149
TACCGAAA | 0.122
AGTTTAGC | -0.0869

Series 3
Target: Centromere-binding protein 1, full length, N-terminal tag (CBF1, Saccharomyces cerevisiae, UniProt P17106, residues 1-351)
Chain of UniProt P17106 (whole entry, looked up): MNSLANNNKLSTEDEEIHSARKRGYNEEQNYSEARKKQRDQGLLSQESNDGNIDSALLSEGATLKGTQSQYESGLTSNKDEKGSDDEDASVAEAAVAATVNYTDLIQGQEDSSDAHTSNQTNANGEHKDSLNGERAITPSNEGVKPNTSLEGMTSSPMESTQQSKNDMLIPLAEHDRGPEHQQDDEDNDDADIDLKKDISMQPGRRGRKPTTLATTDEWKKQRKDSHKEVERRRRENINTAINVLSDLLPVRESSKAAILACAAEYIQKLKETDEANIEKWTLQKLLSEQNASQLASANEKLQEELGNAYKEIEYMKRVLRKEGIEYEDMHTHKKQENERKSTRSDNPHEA
Technique: protein-binding microarray
Molecule type: double-stranded DNA, one strand shown
Medium: in vitro
Concentration: 0.8 µM
Setting: whole 60-bp probe, no competitor
Direction: higher = stronger binding
Constant ends, left off below: … GTCTTGATTCGCTTGACGCTGCTG
Oligonucleotide | fluorescence intensity [a.u.]
CTACTTATTGTGAACATCATGACAAAACGAAATTTC | 547
GAAGCTTTTGTCCTACACGAGGAATGTATCAAATAG | 593
CTAGATGAGCATGATCATGAGATTTAAACTTCTTTC | 729
CTAGTTTGGCTTGCTCACATGGGGCTACACGTATTC | 623
GAATAACCTAATAATTCCGTGATTTTGATATTTTAG | 516
GAACAAAACATAGTTTGCGTGATAACAGCGTGTTAG | 520
GAAGATGTATCTCCCCGCGTGAAGTCACTAGAATAG | 543

Other studies, line by line
Substance | target | assay | system | conditions | scale | measurement | value
PhoQ, residues 284 288 289 292 302 303 SCCLKL | PhoP, residues 12 14 15 18 19 SPWRL (Escherichia coli, UniProt P23836) | Sort-seq, item: YFP reporter | E. coli | PhoQ-PhoP variant library, together with: 10 µM Mg2+ | baseline: high Mg2+ state, higher = stronger signaling | fold induction | 7.71

Some of these lines once more (series 3):
Oligonucleotide | fluorescence intensity [a.u.]
CTACTTATTGTGAACATCATGACAAAACGAAATTTC | 547
GAAGATGTATCTCCCCGCGTGAAGTCACTAGAATAG | 543
